# Results from different studies.
# Numbered parts are unrelated; each lists some results of a single study.

# Sample 1
# Target: Histone acetyltransferase KAT6A, winged helix 2, GST fusion (KAT6A, Homo sapiens, UniProt Q92794, residues 85-181)
# Technique: protein binding microarray
# Molecule type: double-stranded DNA, one strand shown
# Medium: in vitro
# Concentration: not given
# Setting: 8-mer, flanks averaged, mean of 2 arrays, mostly near background
# Reference: not given
# Reading: higher = stronger binding
# Residues (chain): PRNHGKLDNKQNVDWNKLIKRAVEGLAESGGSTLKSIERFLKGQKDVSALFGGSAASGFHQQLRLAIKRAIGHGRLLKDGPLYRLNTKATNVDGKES
Oligonucleotide,E-score
CCGCGACG,0.172
AATGTCAC,0.0795
CCCCCAAG,-0.0741
AGGGCTTA,-0.122
ACGACCCA,0.00701

# Sample 2
# Target: Interferon regulatory factor 3, full length, phosphomimetic (IRF3, Homo sapiens, UniProt Q14653, residues 1-427, S386D/S396D/S398D/S402D/T404D/S405D)
# Technique: protein-binding microarray
# Molecule type: double-stranded DNA, one strand shown
# Medium: in vitro
# Concentration: 2540 nM top
# Setting: 60-bp whole probe
# Together with: salmon DNA 0.4 mg/ml
# Reference: random background probes
# Reading: higher = stronger binding
# Constant ends, left off below: GCCTAGCAC … GTCTTGATTCGCTTGACGCTGCTG
# Residues (chain): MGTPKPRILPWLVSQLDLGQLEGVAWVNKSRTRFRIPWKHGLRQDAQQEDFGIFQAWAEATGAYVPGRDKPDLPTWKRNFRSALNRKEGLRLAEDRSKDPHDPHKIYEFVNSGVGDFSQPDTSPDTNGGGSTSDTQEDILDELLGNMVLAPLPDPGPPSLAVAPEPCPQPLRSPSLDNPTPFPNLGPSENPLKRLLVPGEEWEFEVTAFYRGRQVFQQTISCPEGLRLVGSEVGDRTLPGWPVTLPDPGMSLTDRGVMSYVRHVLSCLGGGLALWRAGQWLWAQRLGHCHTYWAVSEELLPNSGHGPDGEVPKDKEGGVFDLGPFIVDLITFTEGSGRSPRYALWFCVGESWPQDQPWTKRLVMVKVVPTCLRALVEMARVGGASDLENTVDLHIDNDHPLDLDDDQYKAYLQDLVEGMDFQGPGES
Oligonucleotide,fitted relative affinity [z-score]
TCATTTTCCATTTTGTGACTGTGCTAG,7.15
TCAAATCTTTTTCCCTAACTGTGCTAG,1.48
GCACGGCTCGTTATCCTATAGTGCTAG,0.258
GACGGTATCGGTACTGGGGACGTGCTA,3.53
TTAGGTTCCGGCTTCGGTTAGTGCTAG,1.84
GACGAACTGAGTTTCGAGAGGTGCTAG,0.818
TCACTCTTCTGGATCTCACTGTGCTAG,1.04

# Sample 3
# Target: Prothrombin, mature alpha-thrombin (F2, Homo sapiens, UniProt P00734)
# Technique: aptamer microarray, sandwich
# Molecule type: DNA with 2'F-ANA
# Medium: in vitro
# Concentration: 200 nM
# Setting: whole 15-mer aptamer, many near background
# Together with: Cy3 exosite-II aptamer, 400 nM
# Reading: higher = stronger binding
# Oligonucleotide: GGTTGGTGTGGTTGG
Modification,mean fluorescence intensity
2'F-ANA at 6 8 10 13 14 15,89.7 a.u.
2'F-ANA at 2 6 10 12 15,178 a.u.
2'F-ANA at 2 4 6 7 8 10 13 15,69.9 a.u.
2'F-ANA at 2 3 4 5 6 7 10 13 14,68.7 a.u.
2'F-ANA at 1 3 4 5 6 9 11 13 14 15,46.9 a.u.

# Mixed results
Molecule,target,assay,system,setting,how to read,quantity,value
"PhoQ, residues 284 288 289 292 302 303 SACGEM","PhoP, residues 12 14 15 18 19 LHSVW (Escherichia coli, UniProt P23836)","Sort-seq, measured: YFP reporter",E. coli,"PhoQ-PhoP variant library, together with: 10 µM Mg2+","reference: high Mg2+ state, higher = stronger signaling",fold induction,19.5

# For quick reference, copied from above (sample 3):
Modification,mean fluorescence intensity
2'F-ANA at 2 3 4 5 6 7 10 13 14,68.7 a.u.
